Published values gathered from unrelated publications.
Every numbered part comes from another study and shows a few of its results, in no order. Changes are numbered by the printed parent chain.

Study 1
Target: Protein C-ets-1 (ETS1, Homo sapiens, UniProt P14921, residues 1-441, Y397A, full length assumed)
Method: protein-binding microarray
Molecule type: double-stranded DNA, one strand shown
Sample: in vitro
Concentration: not given
Setting: k-mer, scored over probes, only values ≥0.25
Direction: higher = stronger binding
Quantity: E-score
Residues (chain): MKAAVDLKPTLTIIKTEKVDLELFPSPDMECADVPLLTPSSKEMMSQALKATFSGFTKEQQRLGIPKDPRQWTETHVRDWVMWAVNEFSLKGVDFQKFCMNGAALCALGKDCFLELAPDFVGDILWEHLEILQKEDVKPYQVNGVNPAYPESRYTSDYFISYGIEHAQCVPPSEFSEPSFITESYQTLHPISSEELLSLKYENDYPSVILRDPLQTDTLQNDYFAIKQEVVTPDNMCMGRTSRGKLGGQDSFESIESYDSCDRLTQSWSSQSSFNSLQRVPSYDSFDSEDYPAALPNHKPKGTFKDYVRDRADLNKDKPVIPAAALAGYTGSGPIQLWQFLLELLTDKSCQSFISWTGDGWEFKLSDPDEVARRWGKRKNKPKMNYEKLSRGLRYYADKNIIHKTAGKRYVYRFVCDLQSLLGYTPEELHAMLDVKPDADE
CGACAAAC: 0.329
ATTGGCAG: 0.365
ACAATTGC: 0.294
GTCGTCAA: 0.324
ATATCCGC: 0.299
CGGATTGC: 0.297
CGATTGTC: 0.258
AATCGACA: 0.313
GGGGCGGA: 0.384
CCGCCAAC: 0.263
CAATTTCC: 0.323
TAATTGTA: 0.272
CAGACAAA: 0.296
AACGGATA: 0.267
TGCCGCAA: 0.276
CAACATCC: 0.319
ATATTGCC: 0.263
CATTGTCC: 0.281
GTTGACAA: 0.429
CGCACAAG: 0.324
ACCGGATA: 0.264
AAACACAA: 0.297
AACGACAG: 0.259
ATGACAAT: 0.309
ATGGCAAA: 0.396

Study 2
Target: Interferon regulatory factor 7, full length, phosphomimetic (IRF7, Homo sapiens, UniProt Q92985, residues 1-503, S101K/S471D/S472D/S475D/S476D/S477D/S483D/S484D/S487D)
Sequence of UniProt Q92985 (whole entry, unmodified, looked up): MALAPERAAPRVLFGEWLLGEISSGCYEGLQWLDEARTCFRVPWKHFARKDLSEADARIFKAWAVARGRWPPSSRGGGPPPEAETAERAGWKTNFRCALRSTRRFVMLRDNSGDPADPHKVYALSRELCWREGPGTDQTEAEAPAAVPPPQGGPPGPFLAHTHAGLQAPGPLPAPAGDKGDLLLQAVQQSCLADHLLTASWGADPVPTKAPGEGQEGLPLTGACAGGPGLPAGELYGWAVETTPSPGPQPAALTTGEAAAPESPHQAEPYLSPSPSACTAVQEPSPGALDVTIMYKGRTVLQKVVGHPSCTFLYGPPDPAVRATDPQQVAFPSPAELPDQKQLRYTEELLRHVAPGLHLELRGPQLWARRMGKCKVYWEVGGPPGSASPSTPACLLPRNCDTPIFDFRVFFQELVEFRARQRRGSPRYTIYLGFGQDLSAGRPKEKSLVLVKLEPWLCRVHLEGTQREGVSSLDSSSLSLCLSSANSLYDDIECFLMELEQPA
Method: protein-binding microarray
Molecule type: double-stranded DNA, one strand shown
Sample: in vitro
Concentration: 250 nM
Setting: 60-bp whole probe
With: salmon DNA 0.4 mg/ml
Reference: random background probes
Direction: higher = stronger binding
Quantity: log fluorescence
Constant ends, left off below: GCCTAGCAC … GTCTTGATTCGCTTGACGCTGCTG
TTAGATTTCGGGTATCGTTTAGTGCTA: 1.95 z-score
GAAGAACTGGGGTATCGAGACGTGCTA: -0.444 z-score
GACGGACTGCTACCGCTGACGTGCTAG: -0.963 z-score
TTAGGTCTCCTTTTCCTTTAGTGCTAG: 2.29 z-score
GACGATTTCGCGTATCGAGACGTGCTA: 0.696 z-score
TTAGGACTGAACTTTCGGTTAGTGCTA: 0.887 z-score
GACGGACTTCTTCTCCTGACGTGCTAG: -0.118 z-score
GACGGTAACCTACTGCTGACGTGCTAG: -0.492 z-score
GACGGGTTCGGTTCCGGGACGTGCTAG: 2.75 z-score
TTAGAACTGAGTCTCCATTAGTGCTAG: 0.211 z-score
TTAGGTTTCGGTTTCGGCTAGTGCTAG: 14.3 z-score
GACGGTTTCCTTTCCCTGCCGTGCTAG: 4.41 z-score
TTAGAACTGATTATCGATTAGTGCTAG: 0.233 z-score
TCAGGTCTCGGTTTCGGTTAGTGCTAG: 11.4 z-score
TCAACTCTTTCTGTCAGACTGTGCTAG: 0.621 z-score

Study 3
Target: ABI1, truncated, D143A, DHFR fusion (Arabidopsis thaliana)
Method: DHFR PCA, deep sequencing
Sample: yeast
Setting: methotrexate growth selection, single substitutions
With: (+)-ABA 1.4 µM
Reference: wild-type fitted maximum
Direction: higher = stronger binding
Quantity: relative binding score
Starting sequence: PYL1, truncated, DHFR fusion (Arabidopsis thaliana); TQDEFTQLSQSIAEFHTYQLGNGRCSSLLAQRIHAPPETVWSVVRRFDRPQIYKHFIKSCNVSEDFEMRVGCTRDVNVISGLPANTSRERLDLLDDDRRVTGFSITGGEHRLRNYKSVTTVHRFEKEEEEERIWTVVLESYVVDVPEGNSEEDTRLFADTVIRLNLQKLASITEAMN
L29R: 13.3%
S59P: -6.37%
R24F: -3.36%
R49P: 6.73%
E67G: 22%
S26W: 11.7%
H122N: 11.1%
T101N: -1.86%
V78W: 63.4%
N149G: 44.8%
V70I: 52.9%
K58P: -4.06%
G102M: -2.57%
G107L: -7.38%
R45Q: -1.06%
R111E: -9.51%
Q31L: -2.1%
S140C: 7.71%
E131A: 69.8%
M68L: 83.1%
G21P: 34.2%
F66W: 38.2%
S80L: 15.7%

Study 4
Molecule: PhoQ, residues 284 288 289 292 302 303 GLASVI
Method: Sort-seq
Refers to: YFP reporter
Sample: E. coli
Setting: PhoQ-PhoP variant library
With: 10 µM Mg2+
Reference: high Mg2+ state
Direction: higher = stronger signaling
Quantity: fold induction
PhoP, residues 12 14 15 18 19 LHHYF (Escherichia coli, UniProt P23836): 15.2
PhoP, residues 12 14 15 18 19 NFFVT (Escherichia coli, UniProt P23836): 8.44
PhoP, residues 12 14 15 18 19 VGHWL (Escherichia coli, UniProt P23836): 1.47
PhoP, residues 12 14 15 18 19 TPWTL (Escherichia coli, UniProt P23836): 1.15

Study 5
Target: CCND1, cyclin fold, Cln2 fusion (human)
Method: yeast growth competition, sequencing
Sample: yeast
Setting: strong parent motif
Reference: not given
Direction: higher = stronger binding
Quantity: normalised enrichment score
Starting sequence: INSM1 docking peptide (human); PKAIRKLHFEDEV
PKAIRKLHQEDEV [F9Q]: 0.035
PKAIRKLHFVDEV [E10V]: 2.34
PKAIRDLHFEDEV [K6D]: 0.72
PKAICKLHFEDEV [R5C]: 1.9
PKAIRKLHFEDCV [E12C]: 4.51
PKAIRKLHHEDEV [F9H]: 0.128
PDAIRKLHFEDEV [K2D]: 2.1
PKAIRKPHFEDEV [L7P]: 0.0936
PKMIRKLHFEDEV [A3M]: 0.397
PAAIRKLHFEDEV [K2A]: 3.32
PKAIRKLHFEAEV [D11A]: 3.51
PKAIRKWHFEDEV [L7W]: -0.295
PEAIRKLHFEDEV [K2E]: 1.73
PKAIRKLHFEDLV [E12L]: 3.78
PKAIRKCHFEDEV [L7C]: 0.163
PKAIRCLHFEDEV [K6C]: 4.26
PKDIRKLHFEDEV [A3D]: -0.161
PKAIRKLHSEDEV [F9S]: 0.172
PKWIRKLHFEDEV [A3W]: -0.231
PKAIRKEHFEDEV [L7E]: 0.127
PKAIRKLHGEDEV [F9G]: -0.167
PKAPRKLHFEDEV [I4P]: 0.51
PKAIRFLHFEDEV [K6F]: 2.67
PKAIRKLHFEDWV [E12W]: 3.68
PKAIRALHFEDEV [K6A]: 3.88

Study 6
Target: Probable WRKY transcription factor 33, N-terminal DNA-binding domain (WRKY33, Arabidopsis thaliana, UniProt Q8S8P5, residues 169-264)
Method: DNA-protein interaction ELISA
Molecule type: double-stranded DNA, one strand shown
Sample: in vitro, bacterial lysate
Concentration: not given
Setting: whole dsDNA probe, crude lysate protein
Reference: highest signal in screen
Direction: higher = stronger binding
Quantity: relative absorbance
Construct (chain): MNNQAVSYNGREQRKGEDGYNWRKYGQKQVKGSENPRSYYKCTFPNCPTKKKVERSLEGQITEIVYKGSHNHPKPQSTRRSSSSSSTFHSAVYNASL
AAAAAACGCTTTCAGTTTTGATCTTAAAAA: 32.1 % of maximum
AAAAAAATCCATATTATTGCTACCCGAAAA: 22.4 % of maximum
AAAAAACCAGCCTCAGTCCTGAACAAAAAA: 33.7 % of maximum
AAAAAATATCCTATTCTAATTTATATAAAA: 17 % of maximum
AAAAAACCGGCACGATTTGGATATTCAAAA: 21.4 % of maximum
AAAAAATATTCCGCTTTTGGCTGAATAAAA: 31 % of maximum
AAAAAAGGAAGTACTGACGATCTGGAAAAA: 24.2 % of maximum
AAAAAATTCGGGACTAGTAGTGGTGAAAAA: 22 % of maximum
AAAAAAGCCCCTTGCGCCTCTCTACCAAAA: 22.6 % of maximum
AAAAAATGTTGTTGCTGTTGGTCCTAAAAA: 20.2 % of maximum
AAAAAATTAGGACCATCCCCACTAGGAAAA: 25 % of maximum
AAAAAATGGCTCGGGTTCCAAGGTTGAAAA: 32.8 % of maximum
AAAAAATATGGCACTCGCCGCACATCAAAA: 22 % of maximum
AAAAAATCAGTCTGAGACTTACAACTAAAA: 23.1 % of maximum
AAAAAAGTCTCACCTTTAGTCTTAATAAAA: 61.3 % of maximum
AAAAAAGTTGCCGACGATTGCGGGTTAAAA: 22.8 % of maximum
AAAAAAACACCTGTATAGCATGGACGAAAA: 21.8 % of maximum
AAAAAAAACTGTCGCCCCCGGCTGGCAAAA: 21.8 % of maximum
AAAAAAGAAATACCAGAAACTATCATAAAA: 17.7 % of maximum
AAAAAACGTGCGCGTGCATGTCATCGAAAA: 27 % of maximum
AAAAAAGGTAATGCCGGTCCCAGTATAAAA: 16 % of maximum
AAAAAATTGTGCCTCTGCCCTCGCCTAAAA: 21.7 % of maximum
AAAAAACATTCCTAGTTCATGTTACTAAAA: 24.5 % of maximum
AAAAAATAGCGACTTCGACTCTCAGTAAAA: 13.3 % of maximum
AAAAAAGCTGTCACTGTAGTCGGTCCAAAA: 26.9 % of maximum

A few entries again (study 6):
AAAAAATATTCCGCTTTTGGCTGAATAAAA: 31 % of maximum
AAAAAAGGAAGTACTGACGATCTGGAAAAA: 24.2 % of maximum
AAAAAATTCGGGACTAGTAGTGGTGAAAAA: 22 % of maximum
AAAAAAGCCCCTTGCGCCTCTCTACCAAAA: 22.6 % of maximum
AAAAAATGTTGTTGCTGTTGGTCCTAAAAA: 20.2 % of maximum
AAAAAATTAGGACCATCCCCACTAGGAAAA: 25 % of maximum
AAAAAATGGCTCGGGTTCCAAGGTTGAAAA: 32.8 % of maximum
AAAAAATATGGCACTCGCCGCACATCAAAA: 22 % of maximum
AAAAAATCAGTCTGAGACTTACAACTAAAA: 23.1 % of maximum
AAAAAAGTCTCACCTTTAGTCTTAATAAAA: 61.3 % of maximum
AAAAAAGTTGCCGACGATTGCGGGTTAAAA: 22.8 % of maximum
AAAAAAACACCTGTATAGCATGGACGAAAA: 21.8 % of maximum
AAAAAAAACTGTCGCCCCCGGCTGGCAAAA: 21.8 % of maximum
AAAAAAGAAATACCAGAAACTATCATAAAA: 17.7 % of maximum
AAAAAACGTGCGCGTGCATGTCATCGAAAA: 27 % of maximum
AAAAAAGGTAATGCCGGTCCCAGTATAAAA: 16 % of maximum
